Published values gathered from unrelated publications.
Each numbered part is a random draw from the data of one study; scales do not carry over between parts.

Set 1
Target: RING finger protein unkempt homolog, zinc fingers 1-6, GST-SBP tag (UNK, Homo sapiens, UniProt Q9C0B0, residues 30-357)
Sequence of UniProt Q9C0B0 (30-357, looked up): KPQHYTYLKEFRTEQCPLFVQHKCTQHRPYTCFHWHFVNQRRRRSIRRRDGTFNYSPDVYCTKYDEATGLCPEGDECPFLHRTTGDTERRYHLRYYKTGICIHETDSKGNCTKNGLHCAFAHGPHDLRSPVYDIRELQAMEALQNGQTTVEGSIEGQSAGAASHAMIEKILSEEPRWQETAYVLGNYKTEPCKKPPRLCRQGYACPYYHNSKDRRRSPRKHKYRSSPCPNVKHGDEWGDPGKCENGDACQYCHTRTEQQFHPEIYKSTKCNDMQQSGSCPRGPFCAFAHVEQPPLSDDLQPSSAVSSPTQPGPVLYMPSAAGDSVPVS
Method: RNA Bind-n-Seq
Molecule type: RNA
Sample: in vitro
Tested at: not given
Notes: RNA with constant flanks, human and mouse sites, ends assumed
Reference: input RNA pool
Reading: higher = stronger binding
All sequences stand within: GGGAGUUCUACAGUCCGACGAUC … CAACAGAGGAUUGAGCAUCA
Oligonucleotide	bound/input enrichment [ratio]
AAUGUCCUUAAAGCAAUUGAGCAGGCUGAUCUACUGCAGGAGGAAGCUGAAACCCCACGUAGUGUUCUUGAAGAAAUUGGACUGACAUAACUCUCCUCCCUUGUUGAUGACUUCUUGUGG	0.961
UCUGCUCCUGGAAAAGAGAAAAGUGAAACUGAUAAGGAAACUUCUUUGGUAAAGCAAACAUUAGCAAAACUUCAACAACAAGAACAAAGGGAGGAGGCUCAGUGGACACCUACUAAAUUG	0.58
AUCCUUUUUUUUUUCUUUAUAUUUUGGGUUUUGGAGCUUUUAAAAAUGUUUGCUUUCAGGUAUUUUUACUCAUGUGAAGUGAUCUUGAUUCUUCUGAGGUUUUAAACUAAAAUGUUGCUU	0.687
CUCAUCGUCAUGGUCAGGCUCUGAUACCUGCUUUUAAAAUGGAGCUAGAAUGCUUGCUGGAUUGAAAGGGAGUGCCUAUCUAUAUUUAGCAAGAGACACUAUUACCAAAGAUUGUUGGUU	0.133
GGCUGCAGUGGGCAUGGCCGUUGUGUCAACGGGCAGUGCGUGUGUGACGAGGGCUAUACCGGAGAAGACUGUAGCCAGCGGCGAUGCCCCAAUGACUGUCACAACCGGGGUCUCUGCGUA	0.127
GACGACGAGGCUGCCAUGGGCAUUAAAAGCUGUGACCCCAAAGGCCCUCUUAUGAUGUAUAUUUCCAAAAUGGUGCCAACCUCCGACAAAGGUCGGUUCUACGCCUUUGGACGAGUCUUC	0.157
UCGGGGGGGGGGGGCAGUCACCAGCUGAGCUGUACAGCCACAGCCACGGCCGCGGCAUGGCUCGGAGCUUGUUUGACACUGUGCUCAGUCUGUUUUUCUAGGGUUUCAGAUUCAUUGUAU	0.44
CCAUCAGGACACAGGCUCCGGGACGUCGAGCAUCAUCCUCUCCUGGCUGAAAAUGACAACUAUGACUCUUCAUCGUCCUCCUCCUCCGAGGCUGACGUGGCUGACCGGGUCUGGUUCAUC	0.0489

Set 2
Target: Interferon regulatory factor 5, full length, phosphomimetic (IRF5, Homo sapiens, UniProt Q13568-2, residues 1-514, S451D/S453D/S456D/S462D)
Method: protein-binding microarray
Molecule type: double-stranded DNA, one strand shown
Sample: in vitro
Tested at: 940 nM top
Notes: 60-bp whole probe
Added: salmon DNA 0.4 mg/ml
Reference: random background probes
Reading: higher = stronger binding
All sequences stand within: GCCTAGCAC … GTCTTGATTCGCTTGACGCTGCTG
Oligonucleotide	fitted relative affinity
TTAGATTTTAGACTGGATTAGTGCTAG	-0.146 z-score
TTAGGTATCCTTCTGCTTTAGTGCTAG	0.729 z-score
TTATATTTTAATCACATATAGTGCTAG	0.195 z-score
GTAGATATCGGGTTTCGATTAGTGCTA	4.93 z-score
GACGGTTGCCTTTCCCTGACGTGCTAG	0.365 z-score
GACGATTTCAGTCTTGAGACGTGCTAG	0.265 z-score
TTTGTTTCCATTTTCTGAATGTGCTAG	1.71 z-score
GACGCTATCCTTATCCTGACGTGCTAG	0.408 z-score
TTAGGACTGGACTATCGGATAGTGCTA	-0.273 z-score
GACGATTTCAGTTTAGAGACGTGCTAG	0.688 z-score
GATGGTATCGGTTTCGGGACGTGCTAG	10.3 z-score

Set 3
Target: Histone acetyltransferase KAT6A, both winged helices, GST fusion (KAT6A, Homo sapiens, UniProt Q92794, residues 1-181)
Method: protein binding microarray
Molecule type: double-stranded DNA, one strand shown
Sample: in vitro
Tested at: not given
Notes: 8-mer, flanks averaged, mean of 2 arrays, mostly near background
Reference: not given
Reading: higher = stronger binding
Construct (chain): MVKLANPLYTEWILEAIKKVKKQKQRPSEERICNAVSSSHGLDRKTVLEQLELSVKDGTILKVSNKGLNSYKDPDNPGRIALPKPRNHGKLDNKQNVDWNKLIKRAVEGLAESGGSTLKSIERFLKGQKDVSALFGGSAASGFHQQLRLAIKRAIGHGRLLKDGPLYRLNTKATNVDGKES
Oligonucleotide	E-score
CTTGTGTA	-0.0497
CACCTGTA	-0.146
ATTGGCAG	-0.124
GACTCCGA	0.0116
ACGGGTTG	0.251
ACTGCTCC	-0.105
CCACCAAC	-0.0602
ATATTCGG	0.00164
CTAGGCAC	-0.153
GCATCCTA	-0.106
CGAGCAAG	-0.0892
ATTGATTG	-0.00304
AATTCGAG	-0.144
TTCGCCAA	0.0184
CCAAATTA	-0.144
GCTGTCAA	0.0531
ACCCTGCA	-0.137
CGCACGAG	0.144
GACGAGAA	-0.0996

Set 4
Target: Ras GTPase-activating protein-binding protein 1, C-terminal RGG region (G3BP1, Homo sapiens, UniProt Q13283)
Sequence of UniProt Q13283 (whole entry, looked up): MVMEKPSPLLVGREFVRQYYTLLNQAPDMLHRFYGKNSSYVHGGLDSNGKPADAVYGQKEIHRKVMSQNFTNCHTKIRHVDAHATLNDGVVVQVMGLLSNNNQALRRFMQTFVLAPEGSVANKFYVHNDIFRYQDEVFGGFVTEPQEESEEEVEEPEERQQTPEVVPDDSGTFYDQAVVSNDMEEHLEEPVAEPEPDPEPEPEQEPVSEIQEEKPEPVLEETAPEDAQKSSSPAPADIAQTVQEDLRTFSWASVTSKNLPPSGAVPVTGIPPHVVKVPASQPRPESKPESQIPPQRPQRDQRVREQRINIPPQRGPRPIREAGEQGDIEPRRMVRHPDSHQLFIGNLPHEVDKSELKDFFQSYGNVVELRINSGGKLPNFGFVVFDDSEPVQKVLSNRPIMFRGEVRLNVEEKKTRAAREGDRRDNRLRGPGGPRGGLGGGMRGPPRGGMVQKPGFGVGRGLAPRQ
Method: RNA Bind-n-Seq
Molecule type: RNA
Sample: in vitro
Tested at: 1 µM
Notes: whole 134-nt RNA, ends assumed
Added: 150 mM KCl
Reference: input library
Reading: higher = stronger binding
All sequences stand within: GGGAGUUCUACAGUCCGACGAUC … UGGAAUUCUCGGGUGUCAAGG
Oligonucleotide	log2 enrichment
AGUCCUGUGCUACACAUCGUAUGUACCGAAUCGGAAAAAGGAAAAAAAGGUUUUUGGAAAGUAUUAUGUUACGCCGUUCGGAUCUGCACU	-2.3
UGGCCCUGGUGGCAUGCGGGGAGGAAGAGGUGGCCUCAUGGAUCGUGGUGGUCCCGGUGGAAUGUUCAGAGGUGGCCGUGGUGGAUACAG	2.42
GUCCUGUGCUACACAUCGUAUGUACCGAAUCGGGGUUUUGGGUUUUGGGGUUUUGGGGAAAGUAUUAUGUUACGCCGUUCGGAUCUGCAC	0.415
GUCCUGUGCUACACAUCGUAUGUACCGAAUCGGAAAAAAGGAAAAAAGGGGAAAAAAGGAAAGUAUUAUGUUACGCCGUUCGGAUCUGCA	-1.36
UGGCCCUGGUGGCAUGCGGGGAGGAAGAGGUGGGCUCAUGGAUCGUGGUGGUCCCGGUGGAAUGUUCAGAGGUGGCCGUGGUGGAGACAG	2.14
AGUCCUGUGCUACACAUCGUAUGUACCGAAUCGGGGAAAAAGGGGUUUGGGGUGGGGAAAGUAUUAUGUUACGCCGUUCGGAUCUGCACU	2.57
UCAAGUCCUGUGCUACACAUCGUAUGUACCGAAUCGGUGGUUUGGUUUUUUUGGAAAGUAUUAUGUUACGCCGUUCGGAUCUGCACUUCC	-1.31

Excerpt of the above (set 3):
Oligonucleotide	E-score
ACTGCTCC	-0.105
CCACCAAC	-0.0602
ATATTCGG	0.00164
CTAGGCAC	-0.153
